Earlier results as cited in several papers.
Lines come from different studies, so protocols differ. ± gives the spread as reported.
Target: Sodium-dependent serotonin transporter (Slc6a4, Rattus norvegicus, UniProt P31652)
Chain of UniProt P31652 (whole entry, looked up): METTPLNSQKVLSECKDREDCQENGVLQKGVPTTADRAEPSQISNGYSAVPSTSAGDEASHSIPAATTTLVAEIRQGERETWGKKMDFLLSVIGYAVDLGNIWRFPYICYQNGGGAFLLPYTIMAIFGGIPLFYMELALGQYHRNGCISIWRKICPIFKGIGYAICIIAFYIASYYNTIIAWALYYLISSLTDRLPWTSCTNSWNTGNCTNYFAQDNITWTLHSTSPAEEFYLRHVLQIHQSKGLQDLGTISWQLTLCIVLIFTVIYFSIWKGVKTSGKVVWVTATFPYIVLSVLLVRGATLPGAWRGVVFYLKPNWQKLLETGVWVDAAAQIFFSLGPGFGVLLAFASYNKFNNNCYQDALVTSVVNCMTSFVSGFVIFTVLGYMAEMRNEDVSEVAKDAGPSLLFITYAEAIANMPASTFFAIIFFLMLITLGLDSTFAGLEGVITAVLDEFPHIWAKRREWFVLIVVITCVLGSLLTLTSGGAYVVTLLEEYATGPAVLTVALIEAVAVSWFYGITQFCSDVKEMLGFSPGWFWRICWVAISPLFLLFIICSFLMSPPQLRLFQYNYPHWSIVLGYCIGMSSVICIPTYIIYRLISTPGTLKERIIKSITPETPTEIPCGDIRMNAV

SMILES = CNC(C)C(=O)c1ccccc1 (centres unmarked); read-out = substrate release; action = releaser; matrix = rat brain synaptosomes; endpoint = EC50; value = 3.86 µM
SMILES = CC(NC1CC1)C(=O)c1ccc(Cl)c(Cl)c1 (centres unmarked); read-out = serotonin release; action = releaser; matrix = rat brain synaptosomes; endpoint = EC50; value = 0.356 ± 0.096 µM
SMILES = CNC(C)C(=O)c1ccc(C)cc1 (centres unmarked); read-out = substrate release; action = releaser; matrix = rat brain synaptosomes; endpoint = EC50; value = 0.118 µM
SMILES = COc1ccc2[nH]cc(CCN(C)C(C)C)c2c1; endpoint = IC50; value = 6.4 µM
SMILES = CCCC(C(=O)c1ccc2c(c1)OCO2)N1CCCC1 (centres unmarked); read-out = uptake; matrix = rat brain synaptosomes; endpoint = IC50; value = 3.35 ± 0.305 µM
SMILES = Cc1ccc(C(=O)C(C)NC2CC2)cc1Cl (centres unmarked); read-out = serotonin release; action = releaser; matrix = rat brain synaptosomes; endpoint = EC50; value = 0.181 ± 0.031 µM
SMILES = COc1ccc2[nH]cc(CCN(C(C)C)C(C)C)c2c1; endpoint = IC50; value = 1.8 µM
SMILES = CNC(C)C(=O)c1ccc(C)cc1 (centres unmarked); endpoint = IC50; value = 0.422 ± 0.026 µM

Repeated from above:
SMILES = CCCC(C(=O)c1ccc2c(c1)OCO2)N1CCCC1 (centres unmarked); read-out = uptake; matrix = rat brain synaptosomes; endpoint = IC50; value = 3.35 ± 0.305 µM
